Results of several laboratories.
Each numbered part is a random draw from the data of one study; scales do not carry over between parts. Positions count from the first letter of the parent shown.
UniProt P34947, sequence (whole entry, looked up): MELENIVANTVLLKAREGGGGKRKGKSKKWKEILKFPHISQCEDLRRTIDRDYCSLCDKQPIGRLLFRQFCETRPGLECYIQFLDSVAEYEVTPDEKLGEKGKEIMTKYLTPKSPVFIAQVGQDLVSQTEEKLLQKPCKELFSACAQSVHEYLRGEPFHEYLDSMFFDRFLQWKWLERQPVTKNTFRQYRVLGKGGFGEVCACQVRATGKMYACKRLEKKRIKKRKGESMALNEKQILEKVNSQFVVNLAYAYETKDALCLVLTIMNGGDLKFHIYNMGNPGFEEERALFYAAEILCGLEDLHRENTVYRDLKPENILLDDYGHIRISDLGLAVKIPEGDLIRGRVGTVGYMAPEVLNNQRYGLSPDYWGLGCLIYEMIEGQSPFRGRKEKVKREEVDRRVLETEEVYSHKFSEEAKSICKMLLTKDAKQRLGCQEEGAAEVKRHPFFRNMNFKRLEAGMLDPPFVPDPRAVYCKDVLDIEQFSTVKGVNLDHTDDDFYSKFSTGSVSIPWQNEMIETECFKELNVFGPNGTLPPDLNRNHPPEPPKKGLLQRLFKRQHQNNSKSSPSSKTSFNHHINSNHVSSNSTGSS

Study 1 — target: inorganic phosphate, free oxyanion; technique: microfluidic competitive inhibition; sample: in vitro, cell-free expressed; tested at: not given; direction: lower = stronger binding
Setting: derived from inhibition constants, unchanged parent 615000 nM
Starting sequence: PafA, mature enzyme, eGFP fusion (Elizabethkingia meningoseptica, UniProt Q9KJX5); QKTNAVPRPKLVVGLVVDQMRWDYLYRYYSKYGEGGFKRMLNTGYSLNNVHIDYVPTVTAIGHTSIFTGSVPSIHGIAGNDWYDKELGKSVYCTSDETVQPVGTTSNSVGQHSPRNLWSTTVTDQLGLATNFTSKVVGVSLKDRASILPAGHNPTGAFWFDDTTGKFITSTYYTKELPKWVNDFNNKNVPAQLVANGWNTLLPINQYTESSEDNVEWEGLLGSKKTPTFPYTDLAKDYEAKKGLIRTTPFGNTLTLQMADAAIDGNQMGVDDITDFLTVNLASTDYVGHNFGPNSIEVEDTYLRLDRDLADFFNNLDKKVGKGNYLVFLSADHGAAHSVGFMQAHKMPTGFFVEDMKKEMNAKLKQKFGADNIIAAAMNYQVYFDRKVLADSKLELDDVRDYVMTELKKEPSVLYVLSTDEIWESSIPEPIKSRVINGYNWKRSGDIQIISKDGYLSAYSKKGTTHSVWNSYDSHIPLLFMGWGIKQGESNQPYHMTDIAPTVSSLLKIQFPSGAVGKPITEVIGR
Under “phosphate dissociation constant”, `H289G` is recorded as 828 µM.
For `L244G`, “phosphate dissociation constant” read 398 µM.
`F352G`: “phosphate dissociation constant” 588 µM.
`S295G`: “phosphate dissociation constant” 461 µM.
`D124V`: “phosphate dissociation constant” 370 µM.
Under “phosphate dissociation constant”, `T163G` is recorded as 428 µM.
Under “phosphate dissociation constant”, `V122G` is recorded as 469 µM.
For `T278G`, “phosphate dissociation constant” read 490 µM.

Study 2 — effect on: phage display binding; technique: phage display panning NGS; molecule type: peptide; setting: panning round 3; relative to: OGT-panned over input library
Target: UDP-N-acetylglucosamine--peptide N-acetylglucosaminyltransferase 110 kDa subunit (OGT, Homo sapiens, UniProt O15294)
UniProt O15294, sequence (whole entry, looked up): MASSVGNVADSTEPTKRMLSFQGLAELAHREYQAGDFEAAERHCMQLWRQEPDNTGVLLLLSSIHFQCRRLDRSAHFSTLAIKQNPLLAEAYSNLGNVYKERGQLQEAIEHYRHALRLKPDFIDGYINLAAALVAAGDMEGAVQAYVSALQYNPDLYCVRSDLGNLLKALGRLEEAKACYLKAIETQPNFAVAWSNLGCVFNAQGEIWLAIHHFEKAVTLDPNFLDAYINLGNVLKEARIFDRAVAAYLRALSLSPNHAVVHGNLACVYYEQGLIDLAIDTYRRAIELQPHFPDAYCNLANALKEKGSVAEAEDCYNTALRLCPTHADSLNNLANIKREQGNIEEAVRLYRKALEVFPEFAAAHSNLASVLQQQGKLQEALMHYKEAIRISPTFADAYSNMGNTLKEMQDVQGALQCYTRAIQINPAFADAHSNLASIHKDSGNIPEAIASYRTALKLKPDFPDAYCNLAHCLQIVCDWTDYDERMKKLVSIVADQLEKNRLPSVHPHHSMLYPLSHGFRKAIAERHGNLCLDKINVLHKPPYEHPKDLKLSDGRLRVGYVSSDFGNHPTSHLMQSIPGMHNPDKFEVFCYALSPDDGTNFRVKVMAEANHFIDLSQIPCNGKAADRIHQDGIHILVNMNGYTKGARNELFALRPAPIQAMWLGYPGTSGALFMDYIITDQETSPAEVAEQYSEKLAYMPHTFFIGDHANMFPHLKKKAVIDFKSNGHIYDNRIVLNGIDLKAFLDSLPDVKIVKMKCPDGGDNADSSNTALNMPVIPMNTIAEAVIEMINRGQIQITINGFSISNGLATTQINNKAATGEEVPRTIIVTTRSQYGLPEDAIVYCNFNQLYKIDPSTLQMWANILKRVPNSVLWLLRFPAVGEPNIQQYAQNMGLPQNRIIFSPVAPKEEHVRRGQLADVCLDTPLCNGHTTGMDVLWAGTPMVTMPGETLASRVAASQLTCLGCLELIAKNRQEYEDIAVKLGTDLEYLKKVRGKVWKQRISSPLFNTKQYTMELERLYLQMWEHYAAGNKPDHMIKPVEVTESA
For `VVESMFMPEYQIVPV`, the fold enrichment was 3.07.
For `YYLPAYQIAPKYVQD`, the fold enrichment was 2.21.
The fold enrichment of `QQQYRDYNPKYIIHY` is reported as 2.01.
With `VDYRPAYPIDWAPWK` the fold enrichment was 2.55.
`YATPWTPQYQIMYN` gave a fold enrichment of 2.61.
`TSFAPEYIIDYIRPV` gave a fold enrichment of 3.12.
The fold enrichment of `NIMPAYQIMYPANFR` is reported as 2.33.
With `SFVVPRYQIIYKPFQ` the fold enrichment was 2.63.

Study 3 — target: CCNB2, cyclin fold, Cln2 fusion (human); technique: yeast growth competition, sequencing; sample: yeast; setting: strong parent motif; relative to: not given; direction: higher = stronger binding; starting sequence: viral docking peptide; YKVKRRLVFGADD
For `K2C`, “normalised enrichment score” read 2.
`K4D`: “normalised enrichment score” 0.164.
`R6T` — result for “normalised enrichment score”: 0.716.
`V3H` — result for “normalised enrichment score”: 0.148.
`K4Y`: “normalised enrichment score” 0.908.
`F9Q` — result for “normalised enrichment score”: 0.863.
`D12Q`: “normalised enrichment score” 0.961.
For `G10P`, “normalised enrichment score” read 1.68.

Mixed results
With `COC[C@H]1OC(=O)c2coc3c2[C@@]1(C)C1=C(C3=O)[C@@H]2CCC(=O)[C@@]2(C)C[C@H]1OC(C)=O` the remaining activity was 107% (G protein-coupled receptor kinase 5 (GRK5, Homo sapiens, UniProt P34947); enzyme activity, inhibitor; 0.5 µM; relative to: control).

A few entries again (study 1):
For `L244G`, “phosphate dissociation constant” read 398 µM.
`F352G`: “phosphate dissociation constant” 588 µM.
`S295G`: “phosphate dissociation constant” 461 µM.
`D124V`: “phosphate dissociation constant” 370 µM.
